# Experimental data from different studies.
# Every numbered part comes from another study and shows a few of its results, in no order. Positions count from the first letter of the parent shown.

# Block 1 — target: CCNB1, cyclin fold, Cln2 fusion (human); technique: yeast growth competition, sequencing; medium: yeast; notes: weak parent motif; relative to: not given; direction: higher = stronger binding
# Starting sequence: SLBP docking peptide (human); ARYKRKLLINDFG
Change,normalised enrichment score
F12N,0.256
R5V,0.907
N10H,-0.0506
K4E,0.114
N10Q,0.719
D11W,0.298
R5I,0.734
Y3T,0.225
L7H,-0.0505
R5T,-0.000889
L8Y,0.361
R2N,0.679
K6D,0.227
F12T,-0.0979
Y3W,0.302
R5M,0.856
R5K,0.966
A1E,-0.0535

# Block 2 — technique: RNA Bind-n-Seq; form: RNA; medium: in vitro; tested at: 200 nM; notes: whole 134-nt RNA, ends assumed; with: 150 mM LiCl; relative to: input library; direction: higher = stronger binding; all molecules: 7-deaza-guanosine replaces G
# Target: Ras GTPase-activating protein-binding protein 1, full length (G3BP1, Homo sapiens, UniProt Q13283)
# UniProt Q13283, sequence (whole entry, looked up): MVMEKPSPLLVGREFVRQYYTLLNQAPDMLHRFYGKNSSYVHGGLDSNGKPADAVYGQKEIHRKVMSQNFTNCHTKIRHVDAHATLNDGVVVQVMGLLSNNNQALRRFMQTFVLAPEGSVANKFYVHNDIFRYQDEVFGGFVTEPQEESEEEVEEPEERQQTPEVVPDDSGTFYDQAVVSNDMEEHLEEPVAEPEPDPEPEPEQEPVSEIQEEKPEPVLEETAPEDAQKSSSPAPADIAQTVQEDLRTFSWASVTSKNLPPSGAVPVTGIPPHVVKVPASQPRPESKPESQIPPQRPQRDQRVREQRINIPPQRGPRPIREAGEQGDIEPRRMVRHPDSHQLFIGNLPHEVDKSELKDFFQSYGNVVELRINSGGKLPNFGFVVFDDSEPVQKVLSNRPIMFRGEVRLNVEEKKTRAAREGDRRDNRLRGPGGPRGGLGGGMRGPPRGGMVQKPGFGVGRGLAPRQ
Oligonucleotide,log2 enrichment
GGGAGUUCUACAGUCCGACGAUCUAGCUAAACUAAUGUCAACUUAUUUCCUUUUUUCCUUUAGCCACCAUCAAAGAACAGACGAGAGAGAACAGAACUGAAGCCUGAUUUCUUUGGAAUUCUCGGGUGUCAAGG,-0.378
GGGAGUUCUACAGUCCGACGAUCCAAGUCCUGUGCUACACAUCGUAUGUACCGAAUCGGGGUUGGGGUUGGGGUUGGGAAAGUAUUAUGUUACGCCGUUCGGAUCUGCACUUCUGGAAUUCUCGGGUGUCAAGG,-0.435
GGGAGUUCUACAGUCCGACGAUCAUGGACUUGCACAUGAUGAACUGUGAACUUCUAGCCACAUGUAGUGCCCUUGGGUACUUGGAGGGAGACACUUACCAUAAGGAACCAGAUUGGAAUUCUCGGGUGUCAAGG,-1.12
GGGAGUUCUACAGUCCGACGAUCUCAAGUCCUGUGCUACACAUCGUAUGUACCGAAUCGGAAAGGAAAGGGGAAAGGGAAAGUAUUAUGUUACGCCGUUCGGAUCUGCACUUCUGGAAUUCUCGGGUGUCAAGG,-0.376
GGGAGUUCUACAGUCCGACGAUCCAAGUCCUGUGCUACACAUCGUAUGUACCGAAUCGGUUUUUGGUUUUUGGUUUGGAAAGUAUUAUGUUACGCCGUUCGGAUCUGCACUUCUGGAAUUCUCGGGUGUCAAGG,-1.4
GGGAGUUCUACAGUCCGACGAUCGUCCUGUGCUACACAUCGUAUGUACCGAAUCAAACCCCCAAACCCCCCCAAACCCAAAAAAGUAUUAUGUUACGCCGUUCGGAUCUGCACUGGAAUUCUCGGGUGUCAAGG,0.0322
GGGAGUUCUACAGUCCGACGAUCGUCCUGUGCUACACAUCGUAUGUACCGAAUCGGGGUGGGGAAAGGGGUUUUUUUGGGGAAAGUAUUAUGUUACGCCGUUCGGAUCUGCACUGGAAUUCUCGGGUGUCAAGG,0.574
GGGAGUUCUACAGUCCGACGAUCAAGUCCUGUGCUACACAUCGUAUGUACCGAAUCGGGGCCCGGGCCCGGGGCCCGGGAAAGUAUUAUGUUACGCCGUUCGGAUCUGCACUUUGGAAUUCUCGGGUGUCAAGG,-0.837
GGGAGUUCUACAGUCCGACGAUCGUCCUGUGCUACACAUCGUAUGUACCGAAUCGGGGAAAAAGGAAAAAGGGGAAAAAGGGAAAGUAUUAUGUUACGCCGUUCGGAUCUGCAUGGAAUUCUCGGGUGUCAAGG,-0.136
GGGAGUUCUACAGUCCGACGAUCGUCCUGUGCUACACAUCGUAUGUACCGAAUCAAAUUUUUAAAUUUAAAUUUUUUUAAAAAAGUAUUAUGUUACGCCGUUCGGAUCUGCACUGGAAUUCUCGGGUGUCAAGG,-2.81
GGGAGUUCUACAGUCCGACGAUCGUCCUGUGCUACACAUCGUAUGUACCGAAUCAAACCCAAACCCCCAAACCCCCCCAAAAAAGUAUUAUGUUACGCCGUUCGGAUCUGCACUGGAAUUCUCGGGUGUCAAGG,-0.0398

# Block 3 — technique: RNA Bind-n-Seq; form: RNA; medium: in vitro; tested at: 365 nM; relative to: no-protein control; direction: higher = stronger binding
# Target: RNA binding protein fox-1 homolog 2, RRM domain, GST-SBP tag (RBFOX2, Homo sapiens, UniProt O43251-10, residues 100-194)
# Notes: natural RNA segment, single round, ends assumed
# Construct (chain): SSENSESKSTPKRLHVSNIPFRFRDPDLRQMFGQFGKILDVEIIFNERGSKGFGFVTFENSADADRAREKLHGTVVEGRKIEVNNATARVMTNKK
Oligonucleotide,RBNS enrichment (R)
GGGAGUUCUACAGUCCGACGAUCCAUGAACACGUCUUUGAAGUUGUGGCUGAGAAGAUGAGAGGAAUAUUUAAAUAACAUCAACAGAACAACUUCACUUUGGGCCAAACAUUUGAAAAACUUUUUAUAAAAAAUGGAAUUCUCGGGUGCCAA,0.405
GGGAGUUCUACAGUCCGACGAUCUGAGGUCUGCGUCGGGCUUGGCUUUUCACAAAGGCUGAUGUCUUAACUGUCACCCAUAUGGUCCCUGGGCCACCGGGCAGCCUGGGGCGGUGUGUGUGCCAUGUCACAGCUGGAAUUCUCGGGUGCCAA,0.791
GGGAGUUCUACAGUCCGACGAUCGGCACAUUCCUGUACCCUUUAAAUGGGAAAGCAGUUAACGGAAGGGCCACAGGGUCAGAUGAGGGCUGCCUUUCGCUGCUGUGAACACUUACAGUACACCUGACUUGGAAUGGAAUUCUCGGGUGCCAA,0.73
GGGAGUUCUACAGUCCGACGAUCAUGAGCUGAAUCAGCAUCUCCUCCUGAGUCCCAGGGCCCCUGCAGUUCCCAGUCUCUUCUGUCCUGCAGCCCUUGCCUCUUUCCCACAGGUUCCACUUUAUAUCCACCUUUGGAAUUCUCGGGUGCCAA,0.442
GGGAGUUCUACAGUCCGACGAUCCCCUGCCCAGCCAGCCAUCGGAAGAGAGGGCUGAGCCAUGGGGGUUUGGGGCUAAGAAGUUCACCAGCCCUGAGCCAUGGCGGCCCCUCAGCCUGCCUGAAGAGAGGAAAUGGAAUUCUCGGGUGCCAA,0.403
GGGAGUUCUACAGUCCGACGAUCGAGAGCCUGCGUUCUUCUGCCUCAGCUCUGCUCCUCAGGAAGGGGUGGCUCCAGCUGCCCACCAUUCUCACUCUUCUCCUCCCAAGCCACCGGGGUCAGGUCUCUCAUCUUGGAAUUCUCGGGUGCCAA,0.386
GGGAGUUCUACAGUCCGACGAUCUAGCUAGGUGAUAGACAUUUUCAAAAAUUGCCUGACUGGCCAAGUUACAAGGAUGCCUCUCCACACUUGUCCUCUCUACCCACCUACGCUGGAAAUCCAGUUCUUCAGGAUGGAAUUCUCGGGUGCCAA,0.261
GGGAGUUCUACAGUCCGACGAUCAUCAAAGUAGGACAUGCAUCAUCCUCCUAAUUUUAAAUGUUGGCUCUGAUUUUAAAGUGGUGCAUUUGAUUCCAGCCUUGGUAAUGGAGAGUUUGCAAACACACAGCGGCUGGAAUUCUCGGGUGCCAA,2.53
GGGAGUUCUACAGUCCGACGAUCUCUUGGACCAGGGCUUGCAAGGCGAUUUGGGUUUCUGUGAGCUUGCCCAGUUGACCCGAAAAAUAGGACUUUUUAGAAUUGCAUUGCCACUUCUAAAAUCCUAGCAAUACUGGAAUUCUCGGGUGCCAA,0.34
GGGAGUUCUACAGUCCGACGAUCCACAUAAAUGUGGCCCUGAUUGUGGAUGAUCUUGAAUGGAAAUAUCUGACCUCAUGCUGCACACACUGUGGAAUUUCUUCAAGGAAGCUGUAGGUCGGUGCAGGAUCCCCUGGAAUUCUCGGGUGCCAA,0.619
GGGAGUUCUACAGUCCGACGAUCCAGCUGGGGGGCCAACUGAGGCCCUGACCCUCUUCUCCUGUCCCAUCUUCUGAGAGGGCUUCUCAGCCUGGAAACUAUGGAAACAGCAUCAAAGAGAGAAAAGAAUGUGGUGGAAUUCUCGGGUGCCAA,2.02
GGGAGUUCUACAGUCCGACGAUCCGGUAUUCAAGUGGUUCACAGAGAACAGCAGUUAGUUCCUGGUUCUGAGAACCACUUGUCCCAGUAUGACACCUCUUACUAUCUCAGCAGCCUGUGCAGGGUCUCUGUCCUGGAAUUCUCGGGUGCCAA,0.296

# Block 4 — technique: DHFR PCA, deep sequencing; medium: yeast; with: (+)-ABA 0.39 µM; relative to: wild-type fitted maximum; direction: higher = stronger binding
# Target: ABI1, truncated, D143A, DHFR fusion (Arabidopsis thaliana)
# Notes: methotrexate growth selection, single substitutions
# Starting sequence: PYL1, truncated, DHFR fusion (Arabidopsis thaliana); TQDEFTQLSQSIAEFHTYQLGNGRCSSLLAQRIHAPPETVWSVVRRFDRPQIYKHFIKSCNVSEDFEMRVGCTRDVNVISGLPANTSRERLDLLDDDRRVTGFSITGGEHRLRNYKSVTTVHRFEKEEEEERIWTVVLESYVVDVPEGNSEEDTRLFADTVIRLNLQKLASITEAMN
Change,relative binding score
R74L,-6.92%
P50Q,-31.2%
D65H,29.6%
F124I,66.8%
P37S,5.67%
E125D,36.6%
D95E,11.2%
L20H,54.8%
Q19D,61%
D144V,-8.76%
A13Y,8.18%
D92L,-2.48%
N77G,26.5%
S63R,36.6%
A35M,-4.97%
Q51C,0.425%

# Excerpt of the above (block 4):
Change,relative binding score
Q19D,61%
D144V,-8.76%
S63R,36.6%
D92L,-2.48%
